Experimental data of several laboratories.
A part holds a random share of what one study measured.

Series 1
Target: Sal-like protein 4, full length isoform B (SALL4, Homo sapiens, UniProt Q9UJQ4-2, residues 1-616)
Method: universal PBM
Molecule type: double-stranded DNA, one strand shown
Medium: in vitro
Concentration: not given
Notes: 8-mer, flanks averaged, mean of replicates
Reading: higher = stronger binding
Residues (chain): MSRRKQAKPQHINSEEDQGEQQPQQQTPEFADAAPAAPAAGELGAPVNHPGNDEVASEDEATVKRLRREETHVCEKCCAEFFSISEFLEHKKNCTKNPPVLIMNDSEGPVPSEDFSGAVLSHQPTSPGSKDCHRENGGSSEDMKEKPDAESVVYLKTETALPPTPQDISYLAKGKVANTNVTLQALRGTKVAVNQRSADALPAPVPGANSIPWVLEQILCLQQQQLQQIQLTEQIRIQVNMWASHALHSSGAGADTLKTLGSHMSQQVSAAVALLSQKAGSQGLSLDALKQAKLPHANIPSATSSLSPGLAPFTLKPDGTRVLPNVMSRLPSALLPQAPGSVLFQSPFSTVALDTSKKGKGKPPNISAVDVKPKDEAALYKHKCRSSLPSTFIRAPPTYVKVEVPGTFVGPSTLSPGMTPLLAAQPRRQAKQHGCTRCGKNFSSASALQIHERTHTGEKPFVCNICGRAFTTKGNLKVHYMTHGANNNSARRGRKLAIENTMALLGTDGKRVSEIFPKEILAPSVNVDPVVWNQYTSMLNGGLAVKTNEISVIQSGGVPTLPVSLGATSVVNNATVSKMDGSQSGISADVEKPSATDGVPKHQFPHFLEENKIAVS
`AAAGGTTA` has an E-score of 0.168.
`CTGCGATA` gave an E-score of -0.0368.
`ATAGGTAG` has an E-score of 0.164.

Series 2
Target: PABPC1L2, full length, GST fusion (mouse, UniProt A0ABA7IW68)
Method: RNAcompete
Molecule type: RNA
Medium: in vitro
Concentration: 20 nM
Notes: 7-mer, probes averaged, single round
Baseline: mean of 7-mers
Reading: higher = stronger binding
Residues (chain): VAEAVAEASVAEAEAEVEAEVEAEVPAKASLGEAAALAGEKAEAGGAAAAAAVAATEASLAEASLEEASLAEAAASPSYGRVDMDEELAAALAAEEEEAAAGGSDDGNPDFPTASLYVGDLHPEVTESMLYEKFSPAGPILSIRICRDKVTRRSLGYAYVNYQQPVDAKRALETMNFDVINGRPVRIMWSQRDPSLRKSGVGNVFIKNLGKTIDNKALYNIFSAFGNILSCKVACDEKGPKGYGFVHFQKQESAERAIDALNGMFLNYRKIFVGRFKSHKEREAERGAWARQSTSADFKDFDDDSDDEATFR
`GCACCGU` has a 7-mer Z-score of -0.153.
For `UACCUGC`, the 7-mer Z-score was -0.336.
`UAAAUUG` gave a 7-mer Z-score of 1.46.
`UCUAAUA` gave a 7-mer Z-score of -0.188.

Series 3
Target: Histone acetyltransferase KAT6A, both winged helices, GST fusion (KAT6A, Homo sapiens, UniProt Q92794, residues 1-181)
Method: protein binding microarray
Molecule type: double-stranded DNA, one strand shown
Medium: in vitro
Concentration: not given
Notes: 8-mer, flanks averaged, mean of 2 arrays, mostly near background
Baseline: not given
Reading: higher = stronger binding
Residues (chain): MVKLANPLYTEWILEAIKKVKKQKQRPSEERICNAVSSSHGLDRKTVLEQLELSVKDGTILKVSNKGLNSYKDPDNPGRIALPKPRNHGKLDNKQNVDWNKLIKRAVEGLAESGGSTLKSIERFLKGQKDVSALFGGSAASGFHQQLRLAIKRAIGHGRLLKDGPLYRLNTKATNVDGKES
`ATTACTTA` has an E-score of -0.0841.
`CTTACACC` has an E-score of -0.00908.
The E-score of `CTATATTA` is reported as -0.0402.

Mixed results
With `PhoQ, residues 284 288 289 292 302 303 SLSVQF` the fold induction was 5.61 (PhoP, residues 12 14 15 18 19 SGWQI (Escherichia coli, UniProt P23836); Sort-seq, refers to: YFP reporter; E. coli; PhoQ-PhoP variant library, together with: 10 µM Mg2+; baseline: high Mg2+ state, higher = stronger signaling).

A few entries again (series 3):
The E-score of `CTATATTA` is reported as -0.0402.
